{"data": "Measurements collected from several papers", "note": "A part holds a random share of what one study measured. Several values in a cell are separate wells, animals, samples, runs or records.", "sequence of UniProt O14626 (whole entry, looked up)": "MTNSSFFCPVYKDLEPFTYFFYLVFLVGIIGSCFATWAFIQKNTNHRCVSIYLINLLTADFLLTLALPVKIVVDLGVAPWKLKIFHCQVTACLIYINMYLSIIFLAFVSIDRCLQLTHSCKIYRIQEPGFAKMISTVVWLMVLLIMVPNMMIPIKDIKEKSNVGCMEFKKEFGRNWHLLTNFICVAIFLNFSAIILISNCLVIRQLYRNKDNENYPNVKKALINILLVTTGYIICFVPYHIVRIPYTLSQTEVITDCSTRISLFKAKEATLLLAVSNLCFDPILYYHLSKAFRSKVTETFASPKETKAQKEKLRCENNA", "sequence of UniProt P18089 (whole entry, looked up)": "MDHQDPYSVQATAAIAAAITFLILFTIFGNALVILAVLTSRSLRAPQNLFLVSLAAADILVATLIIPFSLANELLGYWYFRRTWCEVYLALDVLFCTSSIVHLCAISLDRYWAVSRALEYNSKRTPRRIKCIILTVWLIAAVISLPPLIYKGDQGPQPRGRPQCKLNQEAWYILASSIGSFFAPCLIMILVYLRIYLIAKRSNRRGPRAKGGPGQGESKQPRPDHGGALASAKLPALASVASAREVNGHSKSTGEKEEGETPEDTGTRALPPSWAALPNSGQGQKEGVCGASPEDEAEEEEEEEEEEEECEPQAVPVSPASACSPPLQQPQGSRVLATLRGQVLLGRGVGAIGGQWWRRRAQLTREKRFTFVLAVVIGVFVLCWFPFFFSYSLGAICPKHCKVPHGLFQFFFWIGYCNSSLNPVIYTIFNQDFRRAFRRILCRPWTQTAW", "sequence of UniProt Q15303 (whole entry, looked up)": "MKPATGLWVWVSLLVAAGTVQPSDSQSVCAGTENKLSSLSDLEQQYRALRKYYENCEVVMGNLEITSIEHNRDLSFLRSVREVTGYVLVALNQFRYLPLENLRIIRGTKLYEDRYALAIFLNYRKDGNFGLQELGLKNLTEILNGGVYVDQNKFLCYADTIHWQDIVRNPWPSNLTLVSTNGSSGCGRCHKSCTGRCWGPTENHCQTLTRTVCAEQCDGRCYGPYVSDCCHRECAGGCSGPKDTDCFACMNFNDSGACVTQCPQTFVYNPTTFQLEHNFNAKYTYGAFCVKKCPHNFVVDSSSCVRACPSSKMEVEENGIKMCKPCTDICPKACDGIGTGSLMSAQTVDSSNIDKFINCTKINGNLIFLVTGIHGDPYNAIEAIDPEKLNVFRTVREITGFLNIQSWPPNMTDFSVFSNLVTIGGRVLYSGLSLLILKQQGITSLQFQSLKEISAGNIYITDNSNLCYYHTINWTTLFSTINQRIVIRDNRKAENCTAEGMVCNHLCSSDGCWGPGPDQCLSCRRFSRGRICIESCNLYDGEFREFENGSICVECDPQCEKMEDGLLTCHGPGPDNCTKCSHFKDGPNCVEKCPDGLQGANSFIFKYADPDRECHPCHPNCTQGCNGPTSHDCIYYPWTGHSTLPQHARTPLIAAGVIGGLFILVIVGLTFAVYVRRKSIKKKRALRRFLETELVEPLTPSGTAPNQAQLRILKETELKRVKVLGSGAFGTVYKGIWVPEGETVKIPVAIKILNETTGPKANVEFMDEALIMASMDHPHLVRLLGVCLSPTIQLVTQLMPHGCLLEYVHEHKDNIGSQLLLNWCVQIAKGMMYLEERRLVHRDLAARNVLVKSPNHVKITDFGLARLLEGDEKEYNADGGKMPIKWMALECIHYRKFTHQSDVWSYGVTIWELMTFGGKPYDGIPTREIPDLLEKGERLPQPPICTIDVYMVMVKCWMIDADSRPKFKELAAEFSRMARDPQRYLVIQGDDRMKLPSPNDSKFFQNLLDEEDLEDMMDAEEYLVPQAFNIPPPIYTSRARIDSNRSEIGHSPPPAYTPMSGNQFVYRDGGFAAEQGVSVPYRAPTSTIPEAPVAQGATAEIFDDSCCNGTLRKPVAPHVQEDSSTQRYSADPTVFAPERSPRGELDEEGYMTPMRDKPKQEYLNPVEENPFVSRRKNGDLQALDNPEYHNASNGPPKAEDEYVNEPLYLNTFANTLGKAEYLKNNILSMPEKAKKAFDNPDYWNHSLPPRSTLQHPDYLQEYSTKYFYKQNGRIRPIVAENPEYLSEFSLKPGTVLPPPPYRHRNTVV", "sequence of UniProt P36897 (whole entry, looked up)": "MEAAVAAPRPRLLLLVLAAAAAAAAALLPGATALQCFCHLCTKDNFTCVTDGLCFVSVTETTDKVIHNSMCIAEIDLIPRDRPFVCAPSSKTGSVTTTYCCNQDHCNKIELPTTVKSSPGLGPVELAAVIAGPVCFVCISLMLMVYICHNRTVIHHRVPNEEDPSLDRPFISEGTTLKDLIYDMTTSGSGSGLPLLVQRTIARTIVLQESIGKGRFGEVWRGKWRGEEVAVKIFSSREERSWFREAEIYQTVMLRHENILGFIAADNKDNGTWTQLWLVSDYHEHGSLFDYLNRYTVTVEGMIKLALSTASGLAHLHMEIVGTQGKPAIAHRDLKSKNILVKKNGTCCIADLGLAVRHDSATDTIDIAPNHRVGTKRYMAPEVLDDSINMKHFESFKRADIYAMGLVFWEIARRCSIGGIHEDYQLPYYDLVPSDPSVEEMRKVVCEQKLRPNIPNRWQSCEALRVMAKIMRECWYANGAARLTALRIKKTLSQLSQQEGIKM", "sequence of UniProt O94804 (whole entry, looked up)": "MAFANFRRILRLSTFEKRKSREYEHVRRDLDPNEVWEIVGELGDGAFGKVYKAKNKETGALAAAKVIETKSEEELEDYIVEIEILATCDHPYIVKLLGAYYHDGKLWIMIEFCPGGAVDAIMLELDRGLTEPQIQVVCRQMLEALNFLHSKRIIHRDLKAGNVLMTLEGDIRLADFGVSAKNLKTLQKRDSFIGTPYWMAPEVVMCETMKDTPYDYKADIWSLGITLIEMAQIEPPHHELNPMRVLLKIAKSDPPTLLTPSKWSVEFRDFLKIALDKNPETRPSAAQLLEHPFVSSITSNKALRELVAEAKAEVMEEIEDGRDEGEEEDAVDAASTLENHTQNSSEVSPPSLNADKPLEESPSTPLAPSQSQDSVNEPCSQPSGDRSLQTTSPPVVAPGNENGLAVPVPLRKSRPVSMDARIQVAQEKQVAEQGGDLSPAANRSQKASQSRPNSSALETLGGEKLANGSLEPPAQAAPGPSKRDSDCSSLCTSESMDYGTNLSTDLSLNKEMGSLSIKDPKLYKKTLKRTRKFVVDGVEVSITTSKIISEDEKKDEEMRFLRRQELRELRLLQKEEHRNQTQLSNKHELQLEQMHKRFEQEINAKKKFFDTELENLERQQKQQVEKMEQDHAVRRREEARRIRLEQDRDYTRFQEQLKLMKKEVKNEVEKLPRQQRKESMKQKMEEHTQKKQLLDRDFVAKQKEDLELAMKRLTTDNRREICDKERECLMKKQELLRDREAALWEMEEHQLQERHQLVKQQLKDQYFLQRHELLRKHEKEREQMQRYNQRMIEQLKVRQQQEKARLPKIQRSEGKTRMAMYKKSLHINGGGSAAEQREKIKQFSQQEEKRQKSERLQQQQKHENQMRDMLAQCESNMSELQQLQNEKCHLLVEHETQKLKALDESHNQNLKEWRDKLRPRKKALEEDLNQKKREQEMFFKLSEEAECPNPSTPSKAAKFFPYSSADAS", "sequence of UniProt Q13557 (whole entry, looked up)": "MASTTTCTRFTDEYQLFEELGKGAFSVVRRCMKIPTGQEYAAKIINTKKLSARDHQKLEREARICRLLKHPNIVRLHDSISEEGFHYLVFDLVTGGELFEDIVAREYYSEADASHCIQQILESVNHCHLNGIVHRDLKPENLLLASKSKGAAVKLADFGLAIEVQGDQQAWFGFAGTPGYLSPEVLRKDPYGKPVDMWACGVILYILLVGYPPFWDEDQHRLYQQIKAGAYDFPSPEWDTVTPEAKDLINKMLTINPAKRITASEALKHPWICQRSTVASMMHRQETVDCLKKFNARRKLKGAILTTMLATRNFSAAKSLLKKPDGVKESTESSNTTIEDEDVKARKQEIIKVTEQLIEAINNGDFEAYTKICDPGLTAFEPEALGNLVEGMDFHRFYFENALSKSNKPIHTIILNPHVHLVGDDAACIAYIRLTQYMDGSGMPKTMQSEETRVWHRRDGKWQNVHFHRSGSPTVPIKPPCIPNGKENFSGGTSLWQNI", "sequence of UniProt Q00535 (whole entry, looked up)": "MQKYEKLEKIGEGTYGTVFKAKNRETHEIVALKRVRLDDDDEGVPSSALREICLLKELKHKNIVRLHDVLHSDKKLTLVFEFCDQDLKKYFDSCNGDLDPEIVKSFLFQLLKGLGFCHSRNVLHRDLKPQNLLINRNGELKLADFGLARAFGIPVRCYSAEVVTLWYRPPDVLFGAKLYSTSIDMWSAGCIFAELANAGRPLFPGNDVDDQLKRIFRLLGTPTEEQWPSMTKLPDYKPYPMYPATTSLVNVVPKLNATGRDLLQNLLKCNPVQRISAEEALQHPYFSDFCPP"}
{"data": "Sample 1", "cell line": "sample B colorectal tumour organoid", "tested at": "1 µM", "reference": "DMSO"}
{"SMILES": "O=C(NCc1ccccc1)c1ccc(S(=O)(=O)NCc2ccccc2)cc1", "viability [%]": 95.9}
{"SMILES": "CCC(=NO)C(C)=Cc1ccc(F)c(C)c1", "viability [%]": 88.8}
{"SMILES": "COc1cc(Nc2ccnc3ccc(Br)cc23)cc(OC)c1OC", "viability [%]": 109}
{"SMILES": "CCC(=N\\O)/C(C)=C/c1ccc(F)cc1", "viability [%]": 117}
{"SMILES": "COc1cccc(NC(=O)c2nc3scc(CN(C)Cc4ccccc4)c3c(=O)[nH]2)c1", "viability [%]": 110}
{"data": "Sample 2", "SMILES": "COc1ccc2[nH]c3c4[nH]c5ccc(OC)cc5c4c4c(c3c2c1)C(=O)NC4=O", "observed": "binding", "tested at": "1 µM"}
{"target": "Calcium/calmodulin-dependent protein kinase type 1B (PNCK, Homo sapiens, UniProt Q6P2M8)", "remaining binding [%]": 78}
{"target": "Homeodomain-interacting protein kinase 1 (HIPK1, Homo sapiens, UniProt Q86Z02)", "technique": "competition with immobilised ligand", "remaining binding [%]": 56}
{"target": "Receptor tyrosine-protein kinase erbB-4 (ERBB4, Homo sapiens, UniProt Q15303)", "technique": "competition with immobilised ligand", "remaining binding [%]": 59}
{"target": "Mitogen-activated protein kinase 15 (MAPK15, Homo sapiens, UniProt Q8TD08)", "technique": "competition with immobilised ligand", "remaining binding [%]": 58}
{"target": "Serine/threonine-protein kinase MRCK beta (CDC42BPB, Homo sapiens, UniProt Q9Y5S2)", "technique": "competition with immobilised ligand", "remaining binding [%]": 89}
{"data": "Sample 3", "Compound": "CCN(c1nc(N)c(C(=O)N=C(N)N)nc1Cl)C(C)C", "observed": "β-arrestin recruitment", "mode": "agonist", "technique": "PRESTO-Tango", "tested at": "10 µM", "reference": "untreated"}
{"target": "G-protein coupled receptor 171 (GPR171, Homo sapiens, UniProt O14626)", "fold over basal": 0.88}
{"target": "Alpha-2B adrenergic receptor (ADRA2B, Homo sapiens, UniProt P18089)", "fold over basal": 0.93}
{"target": "Proteinase-activated receptor 2 (F2RL1, Homo sapiens, UniProt P55085)", "fold over basal": 0.78}
{"target": "Gamma-aminobutyric acid type B receptor subunit 1 (GABBR1, Homo sapiens, UniProt Q9UBS5)", "fold over basal": "0.87 fold"}
{"target": "Proteinase-activated receptor 3 (F2RL2, Homo sapiens, UniProt O00254)", "fold over basal": 0.74}
{"target": "Sphingosine 1-phosphate receptor 4 (S1PR4, Homo sapiens, UniProt O95977)", "fold over basal": 2.4}
{"data": "Sample 4", "SMILES": "CCCNC(=O)Nc1ccc(Oc2ncnc3cc(OC)c(OC)cc23)cc1Cl", "observed": "enzyme activity", "mode": "inhibitor", "tested at": "0.5 µM", "reference": "control"}
{"target": "Serine/threonine-protein kinase Chk2 (CHEK2, Homo sapiens, UniProt O96017)", "remaining activity": "80%"}
{"target": "Serine/threonine-protein kinase OSR1 (OXSR1, Homo sapiens, UniProt O95747)", "remaining activity": "96.5%"}
{"target": "STE20/SPS1-related proline-alanine-rich protein kinase (STK39, Homo sapiens, UniProt Q9UEW8)", "remaining activity": "88%"}
{"target": "Mitogen-activated protein kinase kinase kinase 3 (MAP3K3, Homo sapiens, UniProt Q99759)", "remaining activity": "95.3%"}
{"target": "Mitogen-activated protein kinase 9 (MAPK9, Homo sapiens, UniProt P45984)", "remaining activity": "104%"}
{"target": "Serine/threonine-protein kinase Nek2 (NEK2, Homo sapiens, UniProt P51955)", "remaining activity": "92.3%"}
{"target": "Cyclin-dependent kinase 5, with p25 (CDK5, Homo sapiens, UniProt Q00535)", "remaining activity": "95.7%"}
{"target": "Calcium/calmodulin-dependent protein kinase type II subunit delta (CAMK2D, Homo sapiens, UniProt Q13557)", "remaining activity": "89.4%"}
{"target": "G protein-coupled receptor kinase 3 (GRK3, Homo sapiens, UniProt P35626)", "remaining activity": "96.6%"}
{"target": "Death-associated protein kinase 1 (DAPK1, Homo sapiens, UniProt P53355)", "remaining activity": "104%"}
{"target": "TGF-beta receptor type-1 (TGFBR1, Homo sapiens, UniProt P36897)", "remaining activity": "102%"}
{"target": "TGF-beta receptor type-2 (TGFBR2, Homo sapiens, UniProt P37173)", "remaining activity": "109%"}
{"target": "Tyrosine-protein kinase Lyn, isoform B (LYN, Homo sapiens, UniProt P07948)", "remaining activity": "94.1%"}
{"target": "Serine/threonine-protein kinase STK11 (STK11, Homo sapiens, UniProt Q15831)", "remaining activity": "87.3%"}
{"target": "Serine/threonine-protein kinase 10 (STK10, Homo sapiens, UniProt O94804)", "remaining activity": "35%"}
{"target": "cAMP-dependent protein kinase catalytic subunit alpha (PRKACA, Homo sapiens, UniProt P17612)", "remaining activity": "99.7%"}
{"target": "Cyclin-dependent kinase 4, with cyclin D1 (CDK4, Homo sapiens, UniProt P11802)", "remaining activity": "102%"}
{"target": "Protein kinase C beta type, isoform beta-I (PRKCB, Homo sapiens, UniProt P05771)", "remaining activity": "100%"}
{"target": "cGMP-dependent protein kinase 1, isoform beta (PRKG1, Homo sapiens, UniProt Q13976)", "remaining activity": "95.4%"}
{"target": "Protein kinase C alpha type (PRKCA, Homo sapiens, UniProt P17252)", "remaining activity": "99.3%"}
{"target": "Death-associated protein kinase 2 (DAPK2, Homo sapiens, UniProt Q9UIK4)", "remaining activity": "108%"}
{"target": "Inhibitor of nuclear factor kappa-B kinase subunit epsilon (IKBKE, Homo sapiens, UniProt Q14164)", "remaining activity": "93.5%"}
{"target": "Inhibitor of nuclear factor kappa-B kinase subunit beta (IKBKB, Homo sapiens, UniProt O14920)", "remaining activity": "100%"}
{"target": "Calcium/calmodulin-dependent protein kinase kinase 2 (CAMKK2, Homo sapiens, UniProt Q96RR4)", "remaining activity": "91.5%"}
{"data": "Sample 5", "host": "mouse", "medium": "microsomes or S9", "tested at": "2 µM", "time": "0.5 h"}
{"Structure (SMILES)": "CCOC(=O)c1c(N)sc2c1CCC(NC(=O)OC(C)(C)C)C2 (centres unmarked)", "remaining compound": "84%"}
{"Structure (SMILES)": "CC(Sc1nnnn1C(C)C)C(=O)C12CC3CC(CC(C3)C1)C2 (centres unmarked)", "remaining compound": "> 99%"}
{"Structure (SMILES)": "O=C1NCC(Cn2c3ccccc3c3ccccc32)O1 (centres unmarked)", "remaining compound": "14.6%"}
{"Structure (SMILES)": "Cc1nc2[nH]nc(N)c2c(C)c1-c1cnn(CCC(C)C)c1", "remaining compound": "77%"}
{"data": "Sample 6", "cell line": "mouse MPNST tumor cells", "technique": "high-content nuclear imaging", "refers to": "cell number", "tested at": "10 µM", "time": "12 h", "setting": "mean of 2 replicates", "reference": "plate mean", "reading": "higher = more cells"}
{"Structure (SMILES)": "C[C@H]1C[C@H]2[C@@H]3CCC4=CC(=O)C=C[C@]4(C)[C@@]3(F)[C@@H](O)C[C@]2(C)[C@@]1(O)C(=O)CO", "nuclei count": "2.78 z-score"}
{"Structure (SMILES)": "Oc1c(F)cc(-c2cnccc2-c2ccc(N3CCOCC3)cc2)cc1F", "nuclei count": "0.682 z-score"}
{"Structure (SMILES)": "Cn1c(=O)c2c(ncn2C)n(C)c1=O", "nuclei count": "0.826 z-score and 1.02 z-score"}
{"Structure (SMILES)": "COc1cc(CN(CCN)C(=O)c2cccs2)ccc1OCc1ccccc1", "nuclei count": "1.93 z-score"}
{"Structure (SMILES)": "N=C(N)N1CCc2ccccc2C1", "nuclei count": "0.72 z-score"}
{"Structure (SMILES)": "CC(=O)S[C@@H]1CC2=CC(=O)CC[C@]2(C)[C@H]2CC[C@@]3(C)[C@@H](CC[C@@]34CCC(=O)O4)[C@H]12", "nuclei count": "1.31 z-score and -0.495 z-score and 0.0241 z-score"}
{"note": "A few entries again (sample 2):"}
{"target": "Homeodomain-interacting protein kinase 1 (HIPK1, Homo sapiens, UniProt Q86Z02)", "technique": "competition with immobilised ligand", "remaining binding [%]": 56}
{"target": "Serine/threonine-protein kinase MRCK beta (CDC42BPB, Homo sapiens, UniProt Q9Y5S2)", "technique": "competition with immobilised ligand", "remaining binding [%]": 89}
{"target": "Calcium/calmodulin-dependent protein kinase type 1B (PNCK, Homo sapiens, UniProt Q6P2M8)", "remaining binding [%]": 78}
{"target": "Receptor tyrosine-protein kinase erbB-4 (ERBB4, Homo sapiens, UniProt Q15303)", "technique": "competition with immobilised ligand", "remaining binding [%]": 59}
{"target": "Mitogen-activated protein kinase 15 (MAPK15, Homo sapiens, UniProt Q8TD08)", "technique": "competition with immobilised ligand", "remaining binding [%]": 58}
